Measured values collected from several papers.
Numbered parts are unrelated; each lists some results of a single study. Positions count from the first letter of the parent shown.

Study 1
Target: RNA binding protein fox-1 homolog 2, RRM domain, GST-SBP tag (RBFOX2, Homo sapiens, UniProt O43251-10, residues 100-194)
Method: RNA Bind-n-Seq
Form: RNA
Sample: in vitro
Concentration: 365 nM
Setting: natural RNA segment, single round, ends assumed
Reference: no-protein control
Direction: higher = stronger binding
Shared flanks, not repeated: GGGAGUUCUACAGUCCGACGAUC … UGGAAUUCUCGGGUGCCAA
Construct (chain): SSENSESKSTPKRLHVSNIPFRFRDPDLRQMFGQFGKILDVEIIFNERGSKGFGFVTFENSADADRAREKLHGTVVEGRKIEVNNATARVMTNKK
| Strand | RBNS enrichment (R) |
| --- | --- |
| CACUAGAUAACUUUCAGUAUCAGUGGUGGUUACUUAUUACUUAAAUCAGAGGAAGGAUUUUAUAAAGAUUAAUAAAUUUAAUUUUACCAAUAAAUAUUCCCAUAAUUUAG | 0.61 |
| UGGGAUCUUUGGGUGAUCAAGGGUGUGGUUAGUGGAGGCUCUGUGCUGCACGUAUGCAGUAUCCUAUCUCUUUCUACAUCAGAUCAAAACACUAAGUUGGUGUACUGCCU | 2.26 |
| AAAAACCCACAUGAUUUCAAGGAGUCUGGCAUUCCUGAAUCCUUCUUCCCUGCCAGGUGCCUGUCACCUGUCUUCACUGCCUCCUUUUCCCUGUCAUGCUCAUCAGCUUA | 0.632 |
| AUUCUGCAUGAAUCCUGUGGCUGUCUUAUUUUAAAUAGCUGCUGCUGUGGGAUUAUAUUUUUUUUCCUUAACAUGCCAAAUAUAACUUUCUGAAAGUGAUGGAAAAUGUU | 1.84 |
| UUUUCAGCUAUUGCUUGUGAAAAAAAGCAAGACUAUGUCACUCUAUAGAAGGCUGUUAAAGUGACUCAGGCAGGAAUUAAUUAUUCUGUACCUAAGGGGUUACUUGUUUA | 0.418 |
| AAUGCUAUACUGUCAAGGUACUUGCUUGUGUCUGAACUCUAGUGCACUUAUGAUUUUGUAGACCAUGUGAAAUUUAAUAAGAUACCUUUUUUUUCCUUUCUUUGUGUGUA | 0.371 |
| AACUUGUCCCUCAGGCUUGUUGCCCUCUGCAGUUGAUCUCCAAAGUUUUAAACCUGUUAAAUUAAUUUUGACAAAUAAGUUACCCUCAACUCAGAUCAAAAAUGGGCAGC | 0.479 |
| AGUCAGUCAGUCAGUCAUACUGGGAGAAGCUAGCCUUGCAUCCCUAGCACUGUCUCUUCCUGGCAGUGCUUUCUGCUCGCCCGACAGACAGCCUGUCGUGUCUCUUUGGA | 3.92 |
| CUGGAACCCUCUGAGCAACUUGCUCUGACCUAUAAUGUCUUAGGUGCAACACGGACCCCACCAGAGCUCUUGGAUACCCCCCUAGAUCCAUGUGGCUUUAUGUGAGGGGA | 0.306 |
| UGGCCACUUUUAGACAUUAUCAUUUUGCCUCAGGUUGGAGGACUUUGUGGAAUUUAAGAAAUACAUUUUGUGUGCAUAUUGUUUCAUAGCAAGAAUUGGUUGCAAAAAAA | 0.625 |
| CCUCACUGAAACACCAGGAUGCCCACUGGAUAUACUAAUCUGAACAUCUGUAGGUAGUUUGUCAUGAAAAAGUGGAGAGAAGAUGAGACUUUUGAAUGAAUGAAAAAGGG | 2.68 |
| CGCUGAACACCAUCCCGCCAUUAGCGCAUCGGAACCCCACACAGUUGCAACUCCCAACCCCGAAUCUUUGCAGCCGUUCGGCCCUGAAAGAUGCCCUAUCCAUGAGAUGC | 0.696 |

Study 2
Target: Interferon regulatory factor 5, full length, phosphomimetic (IRF5, Homo sapiens, UniProt Q13568-2, residues 1-514, K96S/S451D/S453D/S456D/S462D)
Method: protein-binding microarray
Form: double-stranded DNA, one strand shown
Sample: in vitro
Concentration: 250 nM
Setting: 60-bp whole probe
With: salmon DNA 0.4 mg/ml
Reference: random background probes
Direction: higher = stronger binding
Shared flanks, not repeated: GCCTAGCAC … GTCTTGATTCGCTTGACGCTGCTG
| Strand | log fluorescence [z-score] |
| --- | --- |
| TTAGCACTGGGGTTTCGGTTAGTGCTA | 6.82 |
| GACGGTCTCGACTATCGGGACGTGCTA | 1.05 |
| GACTATATCAGTCTCGAGACGTGCTAG | 1.04 |
| TCATTATCCTATATCTGACTGTGCTAG | 0.81 |
| TTTGACATCTTCATCAACTAGTGCTAG | 0.356 |
| GACGGTTTCGACTATCGGGAAGTGCTA | 7.48 |
| TTAGGTCTCGGACTGGGTCAGTGCTAG | -0.397 |
| TCATATGTATATATGTGACTGTGCTAG | 0.188 |
| TTAGGACTTCTTTTCCTTTAGTGCTAG | 0.258 |
| CTGTTTCTACTGTCTGTTTCCGTGCTA | 2.59 |
| TTGGGTTTCCTTTCCCTTTAGTGCTAG | 1.76 |
| TCAATTTTCGTTTTTATACTGTGCTAG | 5.62 |
| TTAGGGCTCCTTATCCTTTAGTGCTAG | -0.282 |
| TTAGGACTGGACATTCGGTTAGTGCTA | 0.282 |
| GACGGTCTCGGTATAGGGACGTGCTAG | 0.31 |
| CACGGACTGGGGTATCGGGACGTGCTA | -0.221 |
| TTAGGTATCGGGTTTCGGCTAGTGCTA | 6.32 |
| GACGATATCCGGACTGGAGACGTGCTA | 0.187 |
| TTATGTATCGGGTTTCGGTTAGTGCTA | 8.7 |
| GACGGTATCGGGTTCGGGACGTGCTAG | 2.24 |
| GACGGTCTCGGTATCGGGAAGTGCTAG | 1.43 |
| GACGGTTTCGGGTACCGGGACGTGCTA | 7.91 |
| TTAGGACTGCTTCTCCTTCAGTGCTAG | -0.515 |
| TCACATACGAGTTTCCAACTGTGCTAG | 0.415 |
| TTAGGTATCGCCTTTCGGTTAGTGCTA | 6.88 |

Study 3
Target: CCNB3, cyclin fold, Cln2 fusion (human)
Method: yeast growth competition, sequencing
Sample: yeast
Setting: weak parent motif
Reference: not given
Direction: higher = stronger binding
Starting sequence: INSM1 docking peptide (human); PKAIRKLHFEDEV; partner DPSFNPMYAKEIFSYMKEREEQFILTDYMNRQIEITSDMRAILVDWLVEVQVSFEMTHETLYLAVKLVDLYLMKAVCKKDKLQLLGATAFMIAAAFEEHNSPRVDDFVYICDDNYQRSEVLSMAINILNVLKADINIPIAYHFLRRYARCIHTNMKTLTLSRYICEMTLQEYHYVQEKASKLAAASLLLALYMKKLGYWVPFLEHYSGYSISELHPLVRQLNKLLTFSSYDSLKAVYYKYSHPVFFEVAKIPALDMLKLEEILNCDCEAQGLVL
| Variant | normalised enrichment score |
| --- | --- |
| PKASRKLHFEDEV [I4S] | 0.357 |
| PKAIRHLHFEDEV [K6H] | 0.315 |
| PKAIVKLHFEDEV [R5V] | -0.184 |
| PKAIRRLHFEDEV [K6R] | 0.0489 |
| PKAIRKLGFEDEV [H8G] | -0.203 |
| PKYIRKLHFEDEV [A3Y] | 0.174 |
| PKAIRKLHFPDEV [E10P] | 0.555 |
| PKAIRKLHPEDEV [F9P] | -0.119 |
| PKAIRKLHFVDEV [E10V] | -0.0051 |
| PKAIRKLHGEDEV [F9G] | -0.0354 |
| PDAIRKLHFEDEV [K2D] | 0.161 |
| PKAIRKLQFEDEV [H8Q] | 0.44 |
| PKAIRKKHFEDEV [L7K] | -0.0572 |
| PIAIRKLHFEDEV [K2I] | 0.353 |
| PSAIRKLHFEDEV [K2S] | 0.604 |
| PKAIRKLHDEDEV [F9D] | -0.17 |
| PKAIRKLHFEDIV [E12I] | 0.714 |
| PKAIRKLKFEDEV [H8K] | 0.566 |
| PKAMRKLHFEDEV [I4M] | 0.399 |
| PKAIRKLHFHDEV [E10H] | 0.0672 |
| PKAIRKLHYEDEV [F9Y] | -0.011 |
| PKAGRKLHFEDEV [I4G] | -0.149 |

Study 4
Target: Fragile X messenger ribonucleoprotein 1, C-terminal low-complexity region (Fmr1, Mus musculus, UniProt P35922)
Method: RNA Bind-n-Seq
Form: RNA
Sample: in vitro
Concentration: 200 nM
Setting: whole 134-nt RNA, ends assumed
With: 150 mM KCl
Reference: input library
Direction: higher = stronger binding
Shared flanks, not repeated: GGGAGUUCUACAGUCCGACGAUC … UGGAAUUCUCGGGUGUCAAGG
| Strand | log2 enrichment |
| --- | --- |
| AAGUCCUGUGCUACACAUCGUAUGUACCGAAUCGGGGAGGGGUUUGGGGUUUGGGGAAAGUAUUAUGUUACGCCGUUCGGAUCUGCACUU | 1.37 |
| UAACUUUAGAGGAGGAUCUGAUGGAUAUGGCAGUGGACGUGGAUUUGGGAAUGGCUAUAAUGGGUAUGGAGGAGGACCUGGAGGUGGCAA | 0.244 |
| UGGGAGGUGGAUUUUGUUUAUUUUUUUAGCUCAUUUCCAGGGGUGGGAAUUUUUUUUUAAUAUGUGUCAUGAAUCAAGUUGUUUUUGAAA | 0.321 |
| CUCAAGUCCUGUGCUACACAUCGUAUGUACCGAAUCGGAAGGGGAAGGAAGGGGAAAGUAUUAUGUUACGCCGUUCGGAUCUGCACUUCC | 0.809 |
| AAGUCCUGUGCUACACAUCGUAUGUACCGAAUCGGGAAAGGGUUUUUGGGAAAGGGAAAGUAUUAUGUUACGCCGUUCGGAUCUGCACUU | 0.399 |
| UUACAUUACCUGGUGAAAUAGACAUUGACAGUAUCUCCUAUGAAGAGCUUUCACCACCUGAUGAAGAGCCUGCCAAGAAUAAAAAGGAAA | -1.24 |
| GUCCUGUGCUACACAUCGUAUGUACCGAAUCGGGGAAAAAGGGGAAAAAGGAAAAAGGGAAAGUAUUAUGUUACGCCGUUCGGAUCUGCA | -0.152 |
| CUCAAGUCCUGUGCUACACAUCGUAUGUACCGAAUCGGGAAAGGGAGGGAGGGAAAGUAUUAUGUUACGCCGUUCGGAUCUGCACUUCCA | 1.22 |
| GCAGGAAGUAAAAACAAAUGGAAAUGCUUCGGAUAGUGGCAGGAAAGGGGGUUGCUAAGGAAAGGGUGGGAUGGGAGUGGGUAAAGAGUU | 0.351 |

For quick reference, copied from above (study 3):
| Variant | normalised enrichment score |
| --- | --- |
| PKAIRKLGFEDEV [H8G] | -0.203 |
| PKAIRKLHGEDEV [F9G] | -0.0354 |
| PKAIRKKHFEDEV [L7K] | -0.0572 |
| PKASRKLHFEDEV [I4S] | 0.357 |
| PKAIRRLHFEDEV [K6R] | 0.0489 |
| PKAIRKLHDEDEV [F9D] | -0.17 |
| PKAIVKLHFEDEV [R5V] | -0.184 |
| PKAGRKLHFEDEV [I4G] | -0.149 |
| PKAIRKLHFHDEV [E10H] | 0.0672 |
| PKAIRKLHFPDEV [E10P] | 0.555 |
